# Measurements collected from several papers.
# Each line is one published result; not all experiments were run side by side. Values joined by “and” are separate records of one study, mostly repeats; a detail may differ. ± marks the error that the study gave.
Compound,cell line,assay,system,conditions,scale,quantity,value
COC[C@@H](CC(C)C)NC(=O)c1ccc(C)c(C)c1,primary human lymphocytes,,,"55 µg/mL, 20 h",,mitotic index,10.9
COc1ccc(C=NNC(=O)c2nc3ccccc3s2)cc1O,BJ-1 fibroblasts,MTT,,"100 µM, 48 h",,cytotoxicity,15.4%
COc1cc2ncnc(Nc3ccc(Oc4ccccc4)c(C)c3C)c2cc1OC.Cl,MeWo,"cell growth, resazurin",,"1 µM, 72 h, together with: 0 nM trametinib",reference: DMSO,viability,0.87 fraction of control
CC(=O)Nc1ccc(O)cc1,MDCK,,,"1 µM, 90 min, pH 7.4 apical, 7.4 basolateral",,Papp A to B,8.18 ×10⁻⁶ cm/s and 10.5 ×10⁻⁶ cm/s
Cc1ncc(CO)c(CO)c1O,HCT-8 infected with Cryptosporidium parvum,Hoechst nuclei count,,"1 mM, 24 h",reference: PBS,host cell number,0.997 ± 0.156
C[C@H]1O[C@@H](O[C@H]2[C@@H](O)C[C@H](O[C@H]3[C@@H](O)C[C@H](O[C@H]4CC[C@@]5(C)[C@H](CC[C@@H]6[C@@H]5C[C@@H](O)[C@]5(C)[C@@H](C7=CC(=O)OC7)CC[C@]65O)C4)O[C@@H]3C)O[C@@H]2C)C[C@H](O)[C@@H]1O,MDCK-MDR1 cells,,,"5 µM, pH 7.4",,Papp B to A,22.2 ×10⁻⁶ cm/s
CC(C)=CCC[C@@]1(C)C(CC[C@H]2[C@]3(C)CC[C@H](O)C(C)(C)O[C@H]3CC[C@@]2(C)O)=C(C)CC[C@H]1O,KB-V1 (P-gp overexpressing),"cell viability, MTT",DMEM with 10% bovine serum,72 h,,IC50,> 50 µM
Cc1cc(C(=O)NC(C)(C)COc2cccc3c2C(N)=NS(=O)(=O)N3)cc(C)n1,human peripheral blood lymphocytes,"CBPI, micronucleus test",,"0.6 µg/mL, 4 h, with rat liver S9",reference: vehicle,cytotoxicity,8%
O=C(O)Cc1ccc(O)cc1,HCT-8 infected with Cryptosporidium parvum,Hoechst nuclei count,,"1 mM, 24 h",reference: PBS,host cell number,1 ± 0.022
Cc1c(C)c2c(c(C)c1O)CCC(C)(COc1ccc(CC3SC(=O)NC3=O)cc1)O2 (stereo not drawn),"THLE-2, 3D culture",MTT,,"100 µM, 96 h",,viability,43.3%
CC(=O)Oc1ccccc1C(=O)O,human iPSC-derived cardiomyocytes,,,10 µM,,beat rate,45.6 min⁻¹
COc1ccc(C(=O)NCc2cc(O)c(O)c(Br)c2)cc1,Vero-E6,CCK-8,,24 h,,CC50,> 800 µM
CC(=O)Nc1cccc(-n2c(=O)n(C3CC3)c(=O)c3c(Nc4ccc(I)cc4F)n(C)c(=O)c(C)c32)c1,LoVo (KRAS G13D),resazurin,,"1.56 nM, 72 h",reference: DMSO,viability fraction,0.577 and 1
COc1ccc(Nc2cnnc3cc(-c4cnc(N5CCCN(C)CC5)nc4)ccc23)cc1Cl,B10R mouse macrophages,cytotoxicity,,,,TC50,2.2 µM
CCCC(CCC)NC(=O)c1ccc2c(c1)OCO2,CHO-WBL,,,"1.67 mg/mL, 3 h, with rat liver S9",reference: vehicle control,relative cell growth,72%
CCCCCS(=O)(=O)NC1CCN(c2ncnc3c2nc(-c2ccccc2Cl)n3-c2ccc(Cl)cc2)CC1,MDCK-MDR1,,,"10 µM, 1 h, pH 7.4, 37 °C",,permeability A to B,< 0.1%
Cn1cncc1[C@@](N)(c1ccc(Cl)cc1)c1ccc2c(c1)c(-c1cccc(Cl)c1)cc(=O)n2C,C2BBe1 (Caco-2 clone),,,,,Papp,13.3 ×10⁻⁶ cm/s
O=c1[nH]c(=O)c2c[nH]nc2[nH]1,HCT-8 infected with Cryptosporidium parvum,Hoechst nuclei count,,"1 mM, 24 h",reference: PBS,host cell number,0.965 ± 0.056
COc1cc2ncnc(Nc3ccc(Oc4ccccc4)cc3C)c2cc1OC.O=C(O)C(F)(F)F,A-375 (BRAF V600E),,,"0.3 µM, 72 h",,viability,1 fraction of control
O=C(O)c1cc(O)c2cccc(O)c2n1,HCT-8 infected with Cryptosporidium parvum,Hoechst nuclei count,,"1 mM, 24 h",reference: PBS,host cell number,0.915 ± 0.059
O=C(Nc1ccc2c(c1)OC(F)(F)O2)Nc1ccc(Cl)c(C(F)(F)F)c1,NIH/3T3,,,24 h,,CC50,7.93 µM
O=C(O)CC(O)C(=O)O (racemic),HCT-8 infected with Cryptosporidium parvum,Hoechst nuclei count,,"1 mM, 24 h",reference: PBS,host cell number,0.987 ± 0.04
CCCS(=O)(=O)Oc1ccc(C=NNC(=O)c2nc3ccccc3s2)cc1OC,BJ-1 fibroblasts,MTT,,"100 µM, 48 h",,cytotoxicity,56.2%
Cc1cnc(Nc2ccc(OCCN3CCCC3)cc2)nc1Nc1cccc(S(=O)(=O)NC(C)(C)C)c1,MDCK,permeability basolateral to apical,,"1 µM, 90 min, pH 7.4 apical to 7.4 basolateral",,Papp,1.08 ×10⁻⁶ cm/s and 1.15 ×10⁻⁶ cm/s
CC(C)C[C@H](NC(=O)[C@H](CCCNC(=N)N)NC(=O)CNC(=O)CNC(=O)[C@H](CCCNC(=N)N)NC(=O)CNC(=O)CNC(=O)CNC(=O)c1ccc2c(c1)C(=O)OC21c2ccc(O)cc2Oc2cc(O)ccc21)C(=O)N[C@@H](CO)C(=O)N[C@@H](Cc1ccc(O)cc1)C(=O)N[C@@H](CO)C(=O)N[C@@H](CCCNC(=N)N)C(=O)N[C@@H](CCCNC(=N)N)C(=O)N[C@@H](CCCNC(=N)N)C(=O)N[C@@H](Cc1ccccc1)C(=O)N[C@@H](CO)C(=O)N[C@H](C(=O)N[C@@H](CO)C(=O)N[C@H](C(=O)NCC(=O)N[C@@H](CCCNC(=N)N)C(N)=O)[C@@H](C)O)[C@@H](C)O,hCMEC/D3 monolayers,"BBB permeability, Transwell, item: CF-labelled compound",EGM-2 medium,"concentration not given, 2 h, apical to basal",reference: fluorescence added apically,transport ratio,8.9%
NCCS(=O)(=O)O,HCT-8 infected with Cryptosporidium parvum,Hoechst nuclei count,,"1 mM, 24 h",reference: PBS,host cell number,0.998 ± 0.039
O=C(CS(=O)(=O)O)Nc1nc2ccc([N+](=O)[O-])cc2s1,MDCK-MDR1,,,MDR1 inhibited,,Papp,0.011 ×10⁻⁶ cm/s
C/C=C(/C)C(=O)OC[C@H]1[C@@H](Cc2ccc(F)cc2)CO[C@@H]1c1ccc(F)cc1,HEK293/NF-κB-luc,CellTracker Green CMFDA,,"20 µM, 4.5 h, serum-free medium",reference: stimulated untreated cells,viability,86 ± 12%
C[C@@H](c1ncncc1F)[C@](O)(Cn1cncn1)c1ccc(F)cc1F,MDCK,,,"1 µM, 90 min, pH 7.4 apical, 7.4 basolateral, apical to basolateral",,mass recovery,101 ± 14%
Nc1cc[nH]c(=O)n1,HCT-8 infected with Cryptosporidium parvum,Hoechst nuclei count,,"1 mM, 24 h",reference: PBS,host cell number,1.01 ± 0.075
Cn1cc2c(C(=O)O)ccc(NS(=O)(=O)c3ccc(OCC4CCC4)c(Cl)c3)c2n1,RRCK cells,passive permeability,,,,apparent permeability,11 ×10⁻⁶ cm/s
Cc1noc(C)c1Cn1cc(N2C(=O)CN(Cc3cccc(O)c3)C2=O)cn1,human blood lymphocytes,,,"296.6 µg/mL, 3 h",,aberrant cells without gaps,1%
CCn1c(=O)c2c(nc(/C=C/c3ccc(OC)c(OC)c3)n2C)n(CC)c1=O,MDCK,,,"1 µM, 90 min, pH 6.5 apical, 7.4 basolateral, apical to basolateral",,mass recovery,91 ± 21%
COc1ccc(C[C@H]2CO[C@H](c3ccc(OC)c(OC)c3)[C@H]2COC(=O)C=C(C)C)cc1OC,HEK293/NF-κB-luc,CellTracker Green CMFDA,,"20 µM, 4.5 h, serum-free medium",reference: stimulated untreated cells,viability,108 ± 5%
CC(C)n1nccc1-c1ncccc1COc1cccc(O)c1C=O,MDCK,,,"1 µM, 90 min, pH 6.5 apical, 7.4 basolateral, apical to basolateral",,mass recovery,82 ± 4%
C[C@H]1[C@H](OC(=O)CCC(=O)O)O[C@@H]2O[C@@]3(C)CC[C@H]4[C@H](C)CC[C@@H]1[C@@]24OO3,human iPSC-derived cardiomyocytes,cell viability,,,,highest non-toxic concentration,> 50 µM

# Some of these lines once more:
Compound,cell line,assay,system,conditions,scale,quantity,value
COC[C@@H](CC(C)C)NC(=O)c1ccc(C)c(C)c1,primary human lymphocytes,,,"55 µg/mL, 20 h",,mitotic index,10.9
COc1ccc(C=NNC(=O)c2nc3ccccc3s2)cc1O,BJ-1 fibroblasts,MTT,,"100 µM, 48 h",,cytotoxicity,15.4%
COc1cc2ncnc(Nc3ccc(Oc4ccccc4)c(C)c3C)c2cc1OC.Cl,MeWo,"cell growth, resazurin",,"1 µM, 72 h, together with: 0 nM trametinib",reference: DMSO,viability,0.87 fraction of control
CC(=O)Nc1ccc(O)cc1,MDCK,,,"1 µM, 90 min, pH 7.4 apical, 7.4 basolateral",,Papp A to B,8.18 ×10⁻⁶ cm/s and 10.5 ×10⁻⁶ cm/s
Cc1ncc(CO)c(CO)c1O,HCT-8 infected with Cryptosporidium parvum,Hoechst nuclei count,,"1 mM, 24 h",reference: PBS,host cell number,0.997 ± 0.156
